Values quoted from earlier work, collected from citations in different studies.
Protocols differ between the studies behind these lines. ± marks the error that the study gave.

The ED50 of `O=[N+]([O-])c1ccc(-c2cc(C3CC4CCC3N4)cnc2F)cc1` (racemic) is reported as 0.22 mg/kg (spontaneous activity; mouse).
The koff of `CC[C@H](C)[C@H](NC(=O)CNC(=O)[C@H](CC(=O)O)NC(=O)[C@H](CCCNC(=N)N)NC(=O)[C@@H](NC(=O)[C@H](CC(N)=O)NC(=O)[C@H](CCC(N)=O)NC(=O)CNC(=O)[C@@H](NC(=O)[C@H](CCCCN)NC(=O)[C@H](CCC(=O)O)NC(=O)[C@@H](NC(=O)[C@H](CCCCN)NC(=O)[C@H](CCCCN)NC(=O)[C@H](Cc1ccccc1)NC(=O)[C@H](CC(C)C)NC(=O)[C@H](CCCCN)NC(=O)[C@H](Cc1c[nH]c2ccccc12)NC(=O)[C@@H](N)CCCCN)[C@@H](C)CC)C(C)C)[C@@H](C)CC)C(=O)N[C@H](C(=O)N[C@@H](CCCCN)C(=O)N[C@@H](C)C(=O)NCC(=O)N1CCC[C@H]1C(=O)N[C@@H](C)C(=O)N[C@H](C(=O)N[C@@H](C)C(=O)N[C@H](C(=O)N[C@H](C(=O)NCC(=O)N[C@@H](CCC(N)=O)C(=O)N[C@@H](C)C(=O)N[C@H](C(=O)N[C@@H](CCC(N)=O)C(=O)N[C@H](C(=O)N[C@@H](C)C(=O)N[C@@H](CCCCN)C(N)=O)[C@@H](C)CC)[C@@H](C)O)C(C)C)C(C)C)C(C)C)[C@@H](C)CC` is reported as 300 s⁻¹ (membrane binding; POPC bilayers; room temperature).
Under activity, `CC1(C)C(=O)N(c2ccc(C#N)c(C(F)(F)F)c2)C(=S)N1c1ccc(C(=O)O)c(F)c1` is recorded as “inactive” (human metastatic castration-resistant prostate cancer; dose not given).
The ED50 of `O=[N+]([O-])c1cccc(-c2cc(C3CC4CCC3N4)cnc2F)c1` (racemic) is reported as 6.5 mg/kg (spontaneous activity; mouse).
With `C[C@@H](O)[C@H](NC(=O)[C@H]1NC(=O)[C@H]([C@@H](C)O)NC(=O)[C@H](CCCNC(=N)N)NC(=O)[C@@H](Cc2c[nH]c3ccccc23)NC(=O)[C@H](Cc2ccc(O)cc2)NC(=O)[C@@H](NC(=O)[C@H](N)Cc2ccccc2)CSSC1(C)C)C(N)=O` the pA2 was 7.36 (antagonist; guinea pig ileum).
For `COC[C@@H](NC(C)=O)C(=O)NCc1ccc(OCc2cccc(F)c2)cc1`, the ED50 was 13 mg/kg (mouse, MES seizure; intraperitoneal, time of peak effect).
`C[C@@H]1C(=O)C=C2[C@H]1CN(C)C[C@@H]2C`: blood glucose “decreased” (rabbit; dose not given).
`O=C1N[C@@H](Cc2ccccc2)C(=O)N2CCC[C@@H]2C(=O)N[C@@H](Cc2ccccc2)C(=O)N[C@H]1Cc1c[nH]c2ccccc12`: “time to peak antinociception” 30 min (C57BL/6J mouse; intracerebroventricular, dose not given).
Under “DNA unwinding angle”, `Cc1ccc(C(C)C)cc1.F[P-](F)(F)(F)(F)F.[Cl][Ru-]1[NH2+]CC[NH2+]1` is recorded as 7 ° (calf thymus DNA; covalent adducts).
For `CN(C)c1ccc(/C=C/C(=O)c2ccc(OC(=O)N3CCCC3)cc2O)cc1`, the antioxidant activity was 2.83 fold (concentration not given; relative to: Trolox).
With `C[C@]12CC[C@@H](O)C[C@@H]1CC[C@@H]1[C@@H]2C(=O)C[C@]2(C)C(C#N)=CC[C@@H]12` the EC50 was 1040 ± 140 nM (loss of righting reflex; tadpole).
The ED50 of `COC[C@@H](NC(C)=O)C(=O)NCc1ccc(OCc2ccccc2)cc1` is reported as 5.8 mg/kg (mouse, MES seizure; intraperitoneal, time of peak effect).

A few entries again:
The ED50 of `O=[N+]([O-])c1cccc(-c2cc(C3CC4CCC3N4)cnc2F)c1` (racemic) is reported as 6.5 mg/kg (spontaneous activity; mouse).
